Measurements gathered from unrelated publications.
Each line is one published result; not all experiments were run side by side.

| SMILES | test | test system | setting | quantity | result |
| --- | --- | --- | --- | --- | --- |
| CC(C)Oc1ncnc2c1c(Cl)cn2[C@@H]1O[C@H](CO)[C@@H](O)[C@H]1O |  | mouse liver microsomes | phase I metabolism | time to complete degradation | ≤ 15 min |
| O=C1c2ccc3c4ccc5c6c(ccc(c7ccc(c2c37)C(=O)N1CCN1CCCCC1)c64)C(=O)N(CCN1CCCCC1)C5=O |  | buffer 10 mM | 40 µM, pH 7 | time to complete precipitation | ≤ 2 days |
| N=C(N)NCCC[C@H]1NC(=O)[C@H](N)CSSC[C@H](C(N)=O)NC(=O)[C@@H](CCCNC(=N)N)NC(=O)[C@@H](CCCNC(=N)N)NC(=O)[C@@H](CCCNC(=N)N)NC(=O)[C@@H](CCCNC(=N)N)NC(=O)[C@@H](Cc2c[nH]c3ccccc23)NC(=O)[C@@H](CCCNC(=N)N)NC1=O | HPLC | PBS | concentration not given, pH 7.4, room temperature, together with: GSH 4 mM | time to near-complete reduction | ≤ 1 min |
| CC[C@H](C)[C@H](NC(=O)[C@@H](N)[C@@H](C)O)C(=O)N[C@@H](CCCCN)C(=O)N[C@H](C(=O)N1CCC[C@H]1C(=O)N[C@@H](C)C(=O)NCC(=O)N[C@H](C(=O)O)[C@@H](C)O)[C@@H](C)CC | LC-MS/MS | human plasma | 37 °C | time to reach limit of detection | 2 h |
| CCCC1OC2CC3C4CCC5=CC(=O)C=CC5(C)C4C(O)CC3(C)C2(C(=O)COC(=O)CN(C)C)O1 (centres unmarked) |  |  | concentration not given, pH 7.4, 37 °C | time to near-complete hydrolysis | ≤ 24 h |
| CC[C@H](C)[C@@H]1NC(=O)[C@H](Cc2ccc(O)cc2)NC(=O)[C@@H](N)CSSC[C@@H](C(=O)N2CCC[C@H]2C(=O)N[C@@H](CC(C)C)C(=O)NCC(N)=O)NC(=O)[C@H](CC(N)=O)NC(=O)[C@H](CCC(=O)O)NC1=O | capillary electrophoresis | 50 mM phosphate buffer | pH 2.0, 70 °C, 0.1 mg/mL oxytocin | time to peak degradant | 72 h |
| C[C@H](NC(=O)[C@H](Cc1cnc[nH]1)NC(=O)[C@H](CO)NC(=O)[C@@H](N)CC(=O)O)C(=O)N[C@@H](CCCCN)C(=O)N[C@@H](CCCNC(=N)N)C(=O)N[C@@H](Cc1cnc[nH]1)C(=O)N[C@@H](Cc1cnc[nH]1)C(=O)NCC(=O)N[C@@H](Cc1ccc(O)cc1)C(=O)N[C@@H](CCCCN)C(=O)N[C@@H](CCCNC(=N)N)C(=O)N[C@@H](CCCCN)C(=O)N[C@@H](Cc1ccccc1)C(=O)N[C@@H](Cc1cnc[nH]1)C(=O)N[C@@H](CCC(=O)O)C(=O)N[C@@H](CCCCN)C(=O)N[C@@H](Cc1cnc[nH]1)C(=O)N[C@@H](Cc1cnc[nH]1)C(=O)N[C@@H](CO)C(=O)N[C@@H](Cc1cnc[nH]1)C(=O)N[C@@H](CCCNC(=N)N)C(=O)NCC(=O)N[C@@H](Cc1ccc(O)cc1)C(=O)O | cationic PAGE | pooled whole saliva supernatant G2, diluted 1:10 | 100 µg/mL, 37 °C | time to fragment appearance | 1.5 h |
| CCCC1OC2CC3C4CCC5=CC(=O)C=CC5(C)C4C(O)CC3(C)C2(C(=O)COC(=O)C(C)N)O1 (centres unmarked) |  | human plasma | 200 µg/mL, 37 °C | time to complete hydrolysis | ≤ 8 h |
| C=C(C)C(=O)NCCCCCC(=O)N[C@@H](Cc1ccccc1)C(=O)N[C@@H](CCCCN)C(=O)N[C@@H](Cc1ccccc1)C(=O)N[C@@H](CC(C)C)C(=O)NCCCCCC(=O)N[C@@H](CCCCN)C(=O)N[C@@H](CCCCN)C(=O)N[C@@H](CCCCN)C(=O)N[C@@H](CCCCN)C(=O)N[C@@H](CCCCN)C(=O)N[C@@H](CCCCN)C(=O)N[C@@H](CCCCN)C(=O)N[C@@H](CCCCN)C(=O)N[C@@H](CCCCN)C(=O)N[C@@H](CCCCN)C(N)=O | MALDI-TOF MS | mouse serum | 37 °C | time to onset of degradation | ≤ 1 h |
| CCCC1OC2CC3C4CCC5=CC(=O)C=CC5(C)C4C(O)CC3(C)C2(C(=O)COC(=O)CN)O1 (centres unmarked) |  |  | concentration not given, pH 7.4, 37 °C | time to near-complete hydrolysis | ≤ 24 h |
| CC=C1C(OC2OC(CO)C(O)C(O)C2O)OC=C(C(=O)OC)C1CC(=O)OCC1OC(OCCc2ccc(O)cc2)C(O)C(O)C1O (centres unmarked) |  | mouse intestinal contents, anaerobic | 10 µg/mL, 37 °C | time to complete consumption | ≤ 1 h |

A few entries again:
| SMILES | test | test system | setting | quantity | result |
| --- | --- | --- | --- | --- | --- |
| CCCC1OC2CC3C4CCC5=CC(=O)C=CC5(C)C4C(O)CC3(C)C2(C(=O)COC(=O)CN)O1 (centres unmarked) |  |  | concentration not given, pH 7.4, 37 °C | time to near-complete hydrolysis | ≤ 24 h |
